Published values from different studies.
Parts stem from different laboratories: compare values within a part only.

Block 1
Target: Histone acetyltransferase KAT6A, both winged helices, GST fusion (KAT6A, Homo sapiens, UniProt Q92794, residues 1-181)
Method: protein binding microarray
Molecule type: double-stranded DNA, one strand shown
Matrix: in vitro
Concentration: not given
Notes: 8-mer, flanks averaged, mean of 2 arrays, mostly near background
Baseline: not given
Reading: higher = stronger binding
Target sequence (chain): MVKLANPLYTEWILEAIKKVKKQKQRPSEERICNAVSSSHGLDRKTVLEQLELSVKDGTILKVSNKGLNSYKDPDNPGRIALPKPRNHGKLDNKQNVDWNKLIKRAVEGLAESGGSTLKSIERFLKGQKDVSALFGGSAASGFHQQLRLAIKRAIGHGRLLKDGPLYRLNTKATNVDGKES
Oligonucleotide | E-score
CGAGCACG | 0.127
TCAACCGA | 0.143
CAGCGTCA | 0.0302
ATCTATCG | 0.00178
CCCACTAA | -0.23
AAGATACT | -0.0479
AGCCGATG | 0.0645

Block 2
Target: Interferon regulatory factor 5, full length, phosphomimetic (IRF5, Homo sapiens, UniProt Q13568-2, residues 1-514, K96S/S451D/S453D/S456D/S462D)
Method: protein-binding microarray
Molecule type: double-stranded DNA, one strand shown
Matrix: in vitro
Concentration: 250 nM
Notes: 60-bp whole probe
Added: salmon DNA 0.4 mg/ml
Baseline: random background probes
Reading: higher = stronger binding
Constant ends, left off below: GCCTAGCAC … GTCTTGATTCGCTTGACGCTGCTG
Oligonucleotide | log fluorescence [z-score]
GACGGTTTCAACACTGGGGACGTGCTA | 0.892
TAGGCTCTGTGCTTTCCTGATGTGCTA | -0.637
CTGGAGAGACGGAGTCTCCAGTGCTAG | -0.57
GACGGACTGGGGTTTGGGGACGTGCTA | -0.456
TTAGGTATCGGGTTCGGTTAGTGCTAG | 3.23
GACTATCTCAGTCTCGAGACGTGCTAG | 0.421

Block 3
Target: Prothrombin, mature alpha-thrombin (F2, Homo sapiens, UniProt P00734)
Method: aptamer microarray, sandwich
Molecule type: DNA with 2'F-ANA
Matrix: in vitro
Concentration: 200 nM
Notes: whole 15-mer aptamer, many near background
Added: Cy3 exosite-II aptamer, 400 nM
Reading: higher = stronger binding
Oligonucleotide: GGTTGGTGTGGTTGG
Modification | mean fluorescence intensity [a.u.]
2'F-ANA at 2 3 8 9 11 12 13 | 910
2'F-ANA at 1 2 4 6 7 9 10 12 15 | 61.6
2'F-ANA at 3 5 6 7 8 10 11 12 14 | 50.6
2'F-ANA at 1 3 5 6 7 8 9 10 | 64.4
2'F-ANA at 1 7 8 9 10 12 | 75.5

Single results of other studies
Molecule | target | test | system | conditions | how to read | endpoint | value
PhoQ, residues 284 288 289 292 302 303 TNSAEL | PhoP, residues 12 14 15 18 19 HLGGL (Escherichia coli, UniProt P23836) | Sort-seq, measured: YFP reporter | E. coli | PhoQ-PhoP variant library, added: 10 µM Mg2+ | baseline: high Mg2+ state, higher = stronger signaling | fold induction | 1.35

Some of these lines once more (block 3):
Modification | mean fluorescence intensity [a.u.]
2'F-ANA at 3 5 6 7 8 10 11 12 14 | 50.6
2'F-ANA at 1 3 5 6 7 8 9 10 | 64.4
